Results of several laboratories.
Lines come from different studies, so protocols differ. ± marks the error that the study gave.
Route: intravenous

| Structure (SMILES) | system | conditions | tissue uptake |
| --- | --- | --- | --- |
| N=C(N)NCCC[C@@H]1NC(=O)[C@H](CCCCNC(=O)CNC(=O)CNC(=O)CNC(=O)CC[C@H](NC(=O)CNC(=O)CNC(=O)CNC(=O)CC[C@H](NC(=O)CN2CCN(CC(=O)O)CCN(CC(=O)O)CCN(CC(=O)O)CC2)C(=O)NCC(=O)NCC(=O)NCC(=O)N[C@@H](CCC(=O)NCC(=O)NCC(=O)NCC(=O)NCCCC[C@@H]2NC(=O)[C@@H](Cc3ccccc3)NC(=O)[C@H](CC(=O)O)NC(=O)CNC(=O)[C@H](CCCNC(=N)N)NC2=O)C(=O)NCC(=O)NCC(=O)NCC(=O)NCCCC[C@@H]2NC(=O)[C@@H](Cc3ccccc3)NC(=O)[C@H](CC(=O)O)NC(=O)CNC(=O)[C@H](CCCNC(=N)N)NC2=O)C(=O)NCC(=O)NCC(=O)NCC(=O)NCCCC[C@@H]2NC(=O)[C@@H](Cc3ccccc3)NC(=O)[C@H](CC(=O)O)NC(=O)CNC(=O)[C@H](CCCNC(=N)N)NC2=O)NC(=O)[C@@H](Cc2ccccc2)NC(=O)[C@H](CC(=O)O)NC(=O)CNC1=O [indium-111 labelled] | female athymic nu/nu mice, eyes | 72 h | 0.53 ± 0.12 %ID/g |
| CN1C(=O)[C@@H](Cc2ccc(O)cc2)NC(=O)CNC(=O)[C@H](Cc2ccc3ccccc3c2)NC(=O)[C@H](CCCNC(=N)N)NC(=O)[C@H]1CCCNC(=O)c1ccc(CNC(=O)CN2CCN(CC(=O)O)CCN(CC(=O)O)CCN(CC(=O)O)CC2)cc1 [gallium-68 labelled] | SCID mice, lymphoma xenograft, liver | 2 h | 0.8 ± 0.1 %ID/g |
| CC(C)C[C@@H](NC(=O)[C@@H](CC(C)C)NC(=O)[C@@H](CC(=O)O)NC(=O)[C@@H](CC(C)C)NC(=O)[C@@H](CC(C)C)NC(=O)[C@@H](CC(C)C)NC(=O)[C@H](NC(=O)[C@@H](CC(=O)O)NC(=O)[C@H](NC(=O)[C@H]1CCCN1C(=O)[C@@H](Cc1ccccc1)NC(=O)[C@@H](CC(C)C)NC(=O)[C@@H](CC(C)C)NC(=O)[C@@H](CC(=O)O)NC(=O)[C@@H](CC(C)C)NC(=O)[C@@H](Cc1ccc(O)cc1)NC(=O)[C@@H](C)NC(=O)[C@@H](CCCNC(=N)N)NC(=O)[C@@H](Cc1c[nH]c2ccccc12)NC(=O)[C@H]1CCCN1C(=O)[C@@H](CC(N)=O)NC(=O)[C@@H](CCC(N)=O)NC(=O)[C@@H](CC(=O)O)NC(=O)[C@@H](CC(=O)O)NC(=O)[C@@H](CS)NC(=O)[C@@H](C)NC(=S)Nc1ccc(CC2CN(CC(=O)O)CCN(CC(=O)O)CCN2CC(=O)O)cc1)[C@H](C)O)[C@H](C)O)C(=O)N[C@H](Cc1c[nH]c2ccccc12)C(=O)O (stereo partly drawn) [fluorine-18 labelled] | BALB/c mice, female, 4T1 orthotopic tumour, small intestine | 4 h | 0.927 ± 0.152 %ID/g |
| CCCC[C@H](NC(=O)CCCCCCCNC(=O)CN1CCN(CC(=O)O)CCN(CC(=O)O)CC1)C(=O)N[C@H]1CC(=O)NCCCC[C@@H](C(N)=O)NC(=O)[C@H](Cc2c[nH]c3ccccc23)NC(=O)[C@H](CCCNC(=N)N)NC(=O)[C@@H](Cc2ccccc2)NC(=O)[C@H](Cc2c[nH]cn2)NC1=O [copper-64 labelled] | C57 mice, lung | 0.37 MBq, 2 h | 0.72 ± 0.17 %ID/g |
| CC(C)C[C@H](NC(=O)CN1CCN(CC(=O)O)CCN(CC(=O)O)CC1)C(=O)N[C@@H](CC(C)C)C(=O)N[C@@H](CC(C)C)C(=O)N[C@@H](CC(C)C)C(=O)N[C@@H](CCCNC(=N)N)C(=O)N[C@H](C(=O)N[C@@H](CCCCN)C(=O)N[C@@H](CCCNC(=N)N)C(N)=O)C(C)C [copper-64 labelled] | CD1 mice, kidney | 15 min | 50 ± 20 %ID/g |
| CC(C)C[C@@H](NC(=O)[C@@H](CCC(=O)O)NC(=O)[C@@H](CC(C)C)NC(=O)[C@@H](CC(C)C)NC(=O)[C@@H](CC(C)C)NC(=O)[C@H](NC(=O)[C@@H](CCC(=O)O)NC(=O)[C@H](NC(=O)[C@H]1CCCN1C(=O)[C@@H](Cc1ccccc1)NC(=O)[C@@H](CC(C)C)NC(=O)[C@@H](Cc1c[nH]c2ccccc12)NC(=O)[C@@H](CCC(=O)O)NC(=O)[C@@H](CC(C)C)NC(=O)[C@@H](Cc1ccc(O)cc1)NC(=O)[C@@H](CCCNC(=N)N)NC(=O)[C@@H](C)NC(=O)[C@@H](Cc1c[nH]c2ccccc12)NC(=O)[C@H]1CCCN1C(=O)[C@@H](CC(N)=O)NC(=O)[C@@H](CCC(N)=O)NC(=O)[C@@H](CCC(=O)O)NC(=O)[C@@H](CCC(=O)O)NC(=O)[C@@H](CS)NC(=O)[C@@H](C)NC(=S)Nc1ccc(CC2CN(CC(=O)O)CCN(CC(=O)O)CCN2CC(=O)O)cc1)[C@H](C)O)[C@H](C)O)C(=O)O (stereo partly drawn) [copper-64 labelled] | BALB/c mice, female, 4T1 orthotopic tumour, small intestine | 4 h | 0.307 ± 0.077 %ID/g |
| N=C(N)NCCC[C@@H]1NC(=O)[C@H](CCCCNC(=O)CNC(=O)CNC(=O)CNC(=O)CC[C@H](NC(=O)CNC(=O)CNC(=O)CNC(=O)CN2CCN(CC(=O)O)CCN(CC(=O)O)CCN(CC(=O)O)CC2)C(=O)NCC(=O)NCC(=O)NCC(=O)NCCCC[C@@H]2NC(=O)[C@@H](Cc3ccccc3)NC(=O)[C@H](CC(=O)O)NC(=O)CNC(=O)[C@H](CCCNC(=N)N)NC2=O)NC(=O)[C@@H](Cc2ccccc2)NC(=O)[C@H](CC(=O)O)NC(=O)CNC1=O [indium-111 labelled] | female athymic nu/nu mice, blood | 72 h | 0.01 %ID/g |
| CCCC[C@H](NC(=O)CNC(=O)CNC(=O)CN1CCN(CC(=O)O)CCN(CC(=O)O)CC1)C(=O)N[C@H]1CC(=O)NCCCC[C@@H](C(N)=O)NC(=O)[C@H](Cc2c[nH]c3ccccc23)NC(=O)[C@H](CCCNC(=N)N)NC(=O)[C@@H](Cc2ccccc2)NC(=O)[C@H](Cc2c[nH]cn2)NC1=O [technetium-99m labelled] | C57 mice, whole blood | 0.037 MBq, 24 h | 0.03 ± 0.05 %ID/g |
| Cc1cc(-c2ccc(NC(=O)[C@H](CCCCNC(=O)CCOCCOCCC(=O)N[C@H](Cc3ccccc3)C(=O)N[C@H]3CSSC[C@@H](C(=O)N[C@H](C(=O)O)[C@@H](C)O)NC(=O)[C@H]([C@@H](C)O)NC(=O)[C@H](CCCCN)NC(=O)[C@@H](Cc4c[nH]c5ccccc45)NC(=O)[C@H](Cc4ccc(O)cc4)NC3=O)NC(=O)CN3CCN(CC(=O)O)CCN(CC(=O)O)CCN(CC(=O)O)CC3)c(C)c2)ccc1N=Nc1ccc2c(S(=O)(=O)O)cc(S(=O)(=O)O)c(N)c2c1O [lutetium-177 labelled] | BALB/c nude mice, male, AR-42J tumour, liver | 1.48 MBq | 6.3 ± 1.36 %ID/g |
| CC(C)C[C@@H](NC(=O)[C@@H](CCC(=O)O)NC(=O)[C@@H](CC(C)C)NC(=O)[C@@H](CC(C)C)NC(=O)[C@@H](CC(C)C)NC(=O)[C@H](NC(=O)[C@@H](CCC(=O)O)NC(=O)[C@H](NC(=O)[C@H]1CCCN1C(=O)[C@@H](Cc1ccccc1)NC(=O)[C@@H](CC(C)C)NC(=O)[C@@H](Cc1c[nH]c2ccccc12)NC(=O)[C@@H](CCC(=O)O)NC(=O)[C@@H](CC(C)C)NC(=O)[C@@H](Cc1ccc(O)cc1)NC(=O)[C@@H](CCCNC(=N)N)NC(=O)[C@@H](C)NC(=O)[C@@H](Cc1c[nH]c2ccccc12)NC(=O)[C@H]1CCCN1C(=O)[C@@H](CC(N)=O)NC(=O)[C@@H](CCC(N)=O)NC(=O)[C@@H](CCC(=O)O)NC(=O)[C@@H](CCC(=O)O)NC(=O)[C@@H](CSC1CC(=O)N(CCNC(=O)CN2CCN(CC(=O)O)CCN(CC(=O)O)CC2)C1=O)NC(=O)[C@@H](C)N)[C@H](C)O)[C@H](C)O)C(=O)O (stereo partly drawn) [fluorine-18 labelled] | BALB/c mice, female, 4T1 orthotopic tumour, large intestine | 4 h | 0.91 ± 0.12 %ID/g |
| CCCC[C@H](NC(=O)COCCOCCNC(=O)CN1CCN(CC(=O)O)CCN(CC(=O)O)CC1)C(=O)N[C@H]1CC(=O)NCCCC[C@@H](C(N)=O)NC(=O)[C@H](Cc2c[nH]c3ccccc23)NC(=O)[C@H](CCCNC(=N)N)NC(=O)[C@@H](Cc2ccccc2)NC(=O)[C@H](Cc2c[nH]cn2)NC1=O [copper-64 labelled] | C57 mice, intestine | 0.37 MBq, 0.5 h | 3.26 ± 1.86 %ID |
| N=C(N)NCCC[C@@H]1NC(=O)[C@H](CCCCNC(=O)CC[C@H](NC(=O)CC[C@H](NC(=O)CN2CCN(CC(=O)O)CCN(CC(=O)O)CCN(CC(=O)O)CC2)C(=O)N[C@@H](CCC(=O)NCCCC[C@@H]2NC(=O)[C@@H](Cc3ccccc3)NC(=O)[C@H](CC(=O)O)NC(=O)CNC(=O)[C@H](CCCNC(=N)N)NC2=O)C(=O)NCCCC[C@@H]2NC(=O)[C@@H](Cc3ccccc3)NC(=O)[C@H](CC(=O)O)NC(=O)CNC(=O)[C@H](CCCNC(=N)N)NC2=O)C(=O)NCCCC[C@@H]2NC(=O)[C@@H](Cc3ccccc3)NC(=O)[C@H](CC(=O)O)NC(=O)CNC(=O)[C@H](CCCNC(=N)N)NC2=O)NC(=O)[C@@H](Cc2ccccc2)NC(=O)[C@H](CC(=O)O)NC(=O)CNC1=O [indium-111 labelled] | female athymic nu/nu mice, heart | 72 h | 1.01 ± 0.76 %ID/g |

Repeated from above:
| Structure (SMILES) | system | conditions | tissue uptake |
| --- | --- | --- | --- |
| CC(C)C[C@@H](NC(=O)[C@@H](CC(C)C)NC(=O)[C@@H](CC(=O)O)NC(=O)[C@@H](CC(C)C)NC(=O)[C@@H](CC(C)C)NC(=O)[C@@H](CC(C)C)NC(=O)[C@H](NC(=O)[C@@H](CC(=O)O)NC(=O)[C@H](NC(=O)[C@H]1CCCN1C(=O)[C@@H](Cc1ccccc1)NC(=O)[C@@H](CC(C)C)NC(=O)[C@@H](CC(C)C)NC(=O)[C@@H](CC(=O)O)NC(=O)[C@@H](CC(C)C)NC(=O)[C@@H](Cc1ccc(O)cc1)NC(=O)[C@@H](C)NC(=O)[C@@H](CCCNC(=N)N)NC(=O)[C@@H](Cc1c[nH]c2ccccc12)NC(=O)[C@H]1CCCN1C(=O)[C@@H](CC(N)=O)NC(=O)[C@@H](CCC(N)=O)NC(=O)[C@@H](CC(=O)O)NC(=O)[C@@H](CC(=O)O)NC(=O)[C@@H](CS)NC(=O)[C@@H](C)NC(=S)Nc1ccc(CC2CN(CC(=O)O)CCN(CC(=O)O)CCN2CC(=O)O)cc1)[C@H](C)O)[C@H](C)O)C(=O)N[C@H](Cc1c[nH]c2ccccc12)C(=O)O (stereo partly drawn) [fluorine-18 labelled] | BALB/c mice, female, 4T1 orthotopic tumour, small intestine | 4 h | 0.927 ± 0.152 %ID/g |
| CCCC[C@H](NC(=O)CCCCCCCNC(=O)CN1CCN(CC(=O)O)CCN(CC(=O)O)CC1)C(=O)N[C@H]1CC(=O)NCCCC[C@@H](C(N)=O)NC(=O)[C@H](Cc2c[nH]c3ccccc23)NC(=O)[C@H](CCCNC(=N)N)NC(=O)[C@@H](Cc2ccccc2)NC(=O)[C@H](Cc2c[nH]cn2)NC1=O [copper-64 labelled] | C57 mice, lung | 0.37 MBq, 2 h | 0.72 ± 0.17 %ID/g |
